Results pooled from the literature.
Every numbered part comes from another study and shows a few of its results, in no order. ± gives the spread as reported.
Chain of UniProt Q14012 (whole entry, looked up): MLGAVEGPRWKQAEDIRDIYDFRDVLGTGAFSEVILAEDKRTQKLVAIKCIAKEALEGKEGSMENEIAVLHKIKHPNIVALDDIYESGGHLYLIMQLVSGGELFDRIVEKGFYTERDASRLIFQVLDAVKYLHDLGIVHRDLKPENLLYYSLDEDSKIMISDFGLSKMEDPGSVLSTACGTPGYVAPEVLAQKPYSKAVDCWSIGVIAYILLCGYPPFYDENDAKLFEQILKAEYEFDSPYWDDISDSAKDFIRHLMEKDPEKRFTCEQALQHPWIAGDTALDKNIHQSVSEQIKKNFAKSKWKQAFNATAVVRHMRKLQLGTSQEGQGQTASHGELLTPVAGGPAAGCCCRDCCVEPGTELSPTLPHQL
Chain of UniProt Q05513 (whole entry, looked up): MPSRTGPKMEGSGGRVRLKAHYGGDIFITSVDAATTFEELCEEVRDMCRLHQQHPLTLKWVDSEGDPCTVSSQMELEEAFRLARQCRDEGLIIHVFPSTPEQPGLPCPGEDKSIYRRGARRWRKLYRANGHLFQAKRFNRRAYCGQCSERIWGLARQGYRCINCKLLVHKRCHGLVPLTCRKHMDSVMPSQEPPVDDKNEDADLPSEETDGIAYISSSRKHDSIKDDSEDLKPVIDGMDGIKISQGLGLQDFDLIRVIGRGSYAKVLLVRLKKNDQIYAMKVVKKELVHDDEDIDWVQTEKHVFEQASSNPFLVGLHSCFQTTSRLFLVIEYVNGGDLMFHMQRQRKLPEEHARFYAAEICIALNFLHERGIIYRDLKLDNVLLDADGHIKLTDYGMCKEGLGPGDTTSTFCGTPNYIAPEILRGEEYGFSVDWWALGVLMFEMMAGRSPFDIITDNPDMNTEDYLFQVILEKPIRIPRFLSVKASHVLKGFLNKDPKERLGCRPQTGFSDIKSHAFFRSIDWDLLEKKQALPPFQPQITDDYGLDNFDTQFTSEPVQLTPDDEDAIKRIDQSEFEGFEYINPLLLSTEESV
Chain of UniProt Q9BXA7 (whole entry, looked up): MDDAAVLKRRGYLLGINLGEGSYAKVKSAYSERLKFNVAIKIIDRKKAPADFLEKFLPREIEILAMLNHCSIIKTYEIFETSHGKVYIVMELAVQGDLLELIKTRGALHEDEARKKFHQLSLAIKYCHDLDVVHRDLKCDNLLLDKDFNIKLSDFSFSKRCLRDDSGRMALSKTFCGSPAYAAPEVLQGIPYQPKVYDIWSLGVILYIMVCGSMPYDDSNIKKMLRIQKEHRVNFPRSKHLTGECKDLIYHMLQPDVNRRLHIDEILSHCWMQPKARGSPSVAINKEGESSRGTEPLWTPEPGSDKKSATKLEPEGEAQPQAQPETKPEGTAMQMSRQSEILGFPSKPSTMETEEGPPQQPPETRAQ
Chain of UniProt Q04912 (whole entry, looked up): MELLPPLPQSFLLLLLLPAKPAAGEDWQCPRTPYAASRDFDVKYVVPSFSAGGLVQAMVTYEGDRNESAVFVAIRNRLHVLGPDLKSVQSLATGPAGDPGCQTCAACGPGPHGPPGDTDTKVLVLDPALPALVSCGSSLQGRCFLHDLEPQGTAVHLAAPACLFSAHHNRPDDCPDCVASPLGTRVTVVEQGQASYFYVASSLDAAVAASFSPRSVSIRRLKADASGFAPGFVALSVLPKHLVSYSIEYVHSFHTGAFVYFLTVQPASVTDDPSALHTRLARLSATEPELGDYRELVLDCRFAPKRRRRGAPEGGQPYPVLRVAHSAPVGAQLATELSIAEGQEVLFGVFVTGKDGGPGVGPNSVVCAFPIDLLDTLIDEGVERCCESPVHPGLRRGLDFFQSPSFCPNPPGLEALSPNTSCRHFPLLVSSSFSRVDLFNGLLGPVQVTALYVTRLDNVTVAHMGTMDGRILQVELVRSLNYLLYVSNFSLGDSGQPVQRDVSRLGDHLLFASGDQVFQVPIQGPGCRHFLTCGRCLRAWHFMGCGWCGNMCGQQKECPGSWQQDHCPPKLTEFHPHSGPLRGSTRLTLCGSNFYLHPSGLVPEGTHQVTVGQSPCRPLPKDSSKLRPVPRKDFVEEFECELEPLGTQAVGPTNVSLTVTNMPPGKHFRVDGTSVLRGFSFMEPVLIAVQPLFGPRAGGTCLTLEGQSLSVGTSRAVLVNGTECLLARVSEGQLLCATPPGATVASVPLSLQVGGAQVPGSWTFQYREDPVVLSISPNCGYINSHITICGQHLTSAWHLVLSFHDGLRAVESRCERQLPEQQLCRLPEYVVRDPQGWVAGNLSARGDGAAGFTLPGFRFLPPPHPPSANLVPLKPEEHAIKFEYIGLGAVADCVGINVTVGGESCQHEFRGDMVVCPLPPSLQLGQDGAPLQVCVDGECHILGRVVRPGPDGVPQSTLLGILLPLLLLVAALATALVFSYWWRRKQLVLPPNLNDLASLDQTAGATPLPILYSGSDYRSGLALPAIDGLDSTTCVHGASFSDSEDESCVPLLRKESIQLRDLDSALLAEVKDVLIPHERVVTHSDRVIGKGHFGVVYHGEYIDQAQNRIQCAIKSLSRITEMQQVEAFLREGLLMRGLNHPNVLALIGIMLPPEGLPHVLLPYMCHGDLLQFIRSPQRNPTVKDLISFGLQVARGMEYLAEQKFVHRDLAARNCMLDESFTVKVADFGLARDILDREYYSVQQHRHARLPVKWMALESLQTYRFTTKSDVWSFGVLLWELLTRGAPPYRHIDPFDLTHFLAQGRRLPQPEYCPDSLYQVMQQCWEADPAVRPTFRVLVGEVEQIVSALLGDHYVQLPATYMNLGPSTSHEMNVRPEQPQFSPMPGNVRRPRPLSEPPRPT
Chain of UniProt Q06418 (whole entry, looked up): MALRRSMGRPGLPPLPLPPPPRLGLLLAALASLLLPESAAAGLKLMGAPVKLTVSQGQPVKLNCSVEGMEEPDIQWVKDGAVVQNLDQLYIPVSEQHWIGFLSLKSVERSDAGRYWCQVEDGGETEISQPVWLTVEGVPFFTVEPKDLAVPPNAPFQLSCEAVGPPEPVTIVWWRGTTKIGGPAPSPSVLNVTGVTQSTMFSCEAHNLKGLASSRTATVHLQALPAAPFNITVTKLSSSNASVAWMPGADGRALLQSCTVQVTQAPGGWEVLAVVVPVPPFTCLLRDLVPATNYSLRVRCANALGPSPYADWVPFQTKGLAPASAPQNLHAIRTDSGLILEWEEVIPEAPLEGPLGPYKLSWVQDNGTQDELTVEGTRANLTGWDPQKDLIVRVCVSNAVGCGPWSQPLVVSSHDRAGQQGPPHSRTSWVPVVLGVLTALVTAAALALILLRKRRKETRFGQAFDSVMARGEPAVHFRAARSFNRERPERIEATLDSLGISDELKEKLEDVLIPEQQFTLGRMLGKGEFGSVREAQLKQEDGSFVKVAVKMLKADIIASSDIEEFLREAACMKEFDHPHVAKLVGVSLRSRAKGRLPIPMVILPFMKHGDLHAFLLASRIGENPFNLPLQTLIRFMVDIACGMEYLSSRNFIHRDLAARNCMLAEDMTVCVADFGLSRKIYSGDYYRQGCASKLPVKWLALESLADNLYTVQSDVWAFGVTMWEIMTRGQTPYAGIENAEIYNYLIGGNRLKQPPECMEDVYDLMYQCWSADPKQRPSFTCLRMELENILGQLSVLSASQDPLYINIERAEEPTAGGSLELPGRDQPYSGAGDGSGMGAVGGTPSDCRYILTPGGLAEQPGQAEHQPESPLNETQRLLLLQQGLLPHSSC
Chain of UniProt Q00526 (whole entry, looked up): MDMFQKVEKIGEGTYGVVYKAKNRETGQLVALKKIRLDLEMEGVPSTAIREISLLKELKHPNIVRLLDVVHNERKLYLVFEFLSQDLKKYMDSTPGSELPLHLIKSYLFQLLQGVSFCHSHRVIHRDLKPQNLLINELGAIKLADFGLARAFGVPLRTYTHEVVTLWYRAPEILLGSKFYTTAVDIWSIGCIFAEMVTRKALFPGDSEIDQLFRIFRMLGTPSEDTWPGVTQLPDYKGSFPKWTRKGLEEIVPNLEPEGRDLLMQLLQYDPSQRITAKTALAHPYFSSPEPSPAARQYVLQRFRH
Chain of UniProt P48730 (whole entry, looked up): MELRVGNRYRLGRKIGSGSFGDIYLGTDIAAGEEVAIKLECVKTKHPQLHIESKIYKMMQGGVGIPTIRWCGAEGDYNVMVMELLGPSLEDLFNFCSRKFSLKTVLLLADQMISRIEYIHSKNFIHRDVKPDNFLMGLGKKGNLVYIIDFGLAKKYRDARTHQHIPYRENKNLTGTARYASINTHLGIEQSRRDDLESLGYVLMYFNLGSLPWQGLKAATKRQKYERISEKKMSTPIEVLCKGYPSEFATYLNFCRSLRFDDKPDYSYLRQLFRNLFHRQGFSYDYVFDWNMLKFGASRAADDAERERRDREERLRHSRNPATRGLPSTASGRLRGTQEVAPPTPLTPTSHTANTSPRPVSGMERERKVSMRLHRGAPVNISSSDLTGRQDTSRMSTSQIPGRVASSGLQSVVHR
Chain of UniProt O15530 (whole entry, looked up): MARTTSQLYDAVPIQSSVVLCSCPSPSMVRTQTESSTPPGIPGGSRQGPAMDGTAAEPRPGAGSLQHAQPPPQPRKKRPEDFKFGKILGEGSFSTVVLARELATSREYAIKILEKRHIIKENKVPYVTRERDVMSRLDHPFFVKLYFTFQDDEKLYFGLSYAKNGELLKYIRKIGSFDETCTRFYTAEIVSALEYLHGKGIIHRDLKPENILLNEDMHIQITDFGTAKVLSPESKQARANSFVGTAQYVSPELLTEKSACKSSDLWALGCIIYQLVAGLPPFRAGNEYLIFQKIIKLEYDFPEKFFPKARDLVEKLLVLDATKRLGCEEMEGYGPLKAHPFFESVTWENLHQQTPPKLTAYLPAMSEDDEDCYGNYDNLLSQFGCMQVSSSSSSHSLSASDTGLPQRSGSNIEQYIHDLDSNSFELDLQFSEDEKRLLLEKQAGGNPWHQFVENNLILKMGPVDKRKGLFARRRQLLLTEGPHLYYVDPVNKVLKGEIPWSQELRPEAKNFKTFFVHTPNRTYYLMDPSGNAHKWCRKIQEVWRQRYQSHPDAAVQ

Block 1
Compound: CCCC(=O)Oc1ccc2[nH]c(C(=O)c3cc4ccccc4[nH]3)cc2c1
Read-out: enzyme activity
Action: inhibitor
Concentration: 0.5 µM
Relative to: control
target	remaining activity
Mitogen-activated protein kinase kinase kinase 20 (MAP3K20, Homo sapiens, UniProt Q9NYL2)	104%
Ribosomal protein S6 kinase alpha-3 (RPS6KA3, Homo sapiens, UniProt P51812)	97.5%
Ephrin type-A receptor 2 (EPHA2, Homo sapiens, UniProt P29317)	99%
Serine/threonine-protein kinase SIK2 (SIK2, Homo sapiens, UniProt Q9H0K1)	97.6%
Casein kinase I isoform delta (CSNK1D, Homo sapiens, UniProt P48730)	96.4%
Insulin-like growth factor 1 receptor (IGF1R, Homo sapiens, UniProt P08069)	88.3%
Ephrin type-A receptor 6 (EPHA6, Homo sapiens, UniProt Q9UF33)	88%
Tyrosine-protein kinase receptor TYRO3 (TYRO3, Homo sapiens, UniProt Q06418)	101%
Serine/threonine-protein kinase PAK 6 (PAK6, Homo sapiens, UniProt Q9NQU5)	94.5%
Calcium/calmodulin-dependent protein kinase kinase 1 (CAMKK1, Homo sapiens, UniProt Q8N5S9)	106%
Calcium/calmodulin-dependent protein kinase type 1 (CAMK1, Homo sapiens, UniProt Q14012)	98.8%
Casein kinase I isoform epsilon (CSNK1E, Homo sapiens, UniProt P49674)	97.4%
Protein kinase C zeta type (PRKCZ, Homo sapiens, UniProt Q05513)	98.3%
Vascular endothelial growth factor receptor 1 (FLT1, Homo sapiens, UniProt P17948)	89.7%
Tyrosine-protein kinase Tec (TEC, Homo sapiens, UniProt P42680)	97.8%
Dual specificity protein kinase CLK2 (CLK2, Homo sapiens, UniProt P49760)	94.3%
Muscle, skeletal receptor tyrosine-protein kinase (MUSK, Homo sapiens, UniProt O15146)	79.8%
Serine/threonine-protein kinase PAK 1 (PAK1, Homo sapiens, UniProt Q13153)	95.8%
Tyrosine-protein kinase JAK1 (JAK1, Homo sapiens, UniProt P23458)	104%
Cyclin-dependent kinase 2, with cyclin E (CDK2, Homo sapiens, UniProt P24941)	92.1%
Serine/threonine-protein kinase Sgk2 (SGK2, Homo sapiens, UniProt Q9HBY8)	99.4%
SRSF protein kinase 1 (SRPK1, Homo sapiens, UniProt Q96SB4)	105%
Protein kinase C theta type (PRKCQ, Homo sapiens, UniProt Q04759)	111%

Block 2
SMILES: O=C(Nc1cnc(Oc2ccc(F)cc2)nc1)N1CCc2ncccc2[C@@H]1c1ccc(F)cc1
Read-out: cell-free assay
Technique: competition with immobilised ligand
Concentration: 1 µM
target	remaining binding [%]
Tyrosine-protein kinase BTK (BTK, Homo sapiens, UniProt Q06187)	92
Tyrosine-protein kinase Fyn (FYN, Homo sapiens, UniProt P06241)	100
3-phosphoinositide-dependent protein kinase 1 (PDPK1, Homo sapiens, UniProt O15530)	97
Fibroblast growth factor receptor 3 (FGFR3, Homo sapiens, UniProt P22607, G697C)	89
Serine/threonine-protein kinase TAO2 (TAOK2, Homo sapiens, UniProt Q9UL54)	87
5'-AMP-activated protein kinase catalytic subunit alpha-2 (PRKAA2, Homo sapiens, UniProt P54646)	79
Serine/threonine-protein kinase Nek9 (NEK9, Homo sapiens, UniProt Q8TD19)	90
Serine/threonine-protein kinase pim-3 (PIM3, Homo sapiens, UniProt Q86V86)	82
Tyrosine-protein kinase receptor Tie-1 (TIE1, Homo sapiens, UniProt P35590)	88
Serine/threonine-protein kinase D1 (PRKD1, Homo sapiens, UniProt Q15139)	100
Proto-oncogene tyrosine-protein kinase ROS (ROS1, Homo sapiens, UniProt P08922)	82
Macrophage-stimulating protein receptor (MST1R, Homo sapiens, UniProt Q04912)	100
Dual specificity mitogen-activated protein kinase kinase 5 (MAP2K5, Homo sapiens, UniProt Q13163)	83
Proto-oncogene tyrosine-protein kinase receptor Ret (RET, Homo sapiens, UniProt P07949, V804L)	86
Tyrosine-protein kinase ABL1, phosphorylated (ABL1, Homo sapiens, UniProt P00519, F317L)	83
Tyrosine-protein kinase JAK2, JH1 (JAK2, Homo sapiens, UniProt O60674)	84
Interleukin-1 receptor-associated kinase 4 (IRAK4, Homo sapiens, UniProt Q9NWZ3)	95
Mitogen-activated protein kinase 14 (MAPK14, Homo sapiens, UniProt Q16539)	79
Testis-specific serine/threonine-protein kinase 1 (TSSK1B, Homo sapiens, UniProt Q9BXA7)	100
G protein-coupled receptor kinase 4 (GRK4, Homo sapiens, UniProt P32298)	67
Ribosomal protein S6 kinase alpha-1, C-terminal kinase domain (RPS6KA1, Homo sapiens, UniProt Q15418)	76
Mitogen-activated protein kinase 10 (MAPK10, Homo sapiens, UniProt P53779)	88
Cyclin-dependent kinase 3 (CDK3, Homo sapiens, UniProt Q00526)	89
Ribosomal protein S6 kinase alpha-5, N-terminal kinase domain (RPS6KA5, Homo sapiens, UniProt O75582)	85

Single results of other studies
SMILES	species	matrix	route	dose	time	measurement	result
COC(=O)c1cc(Cl)ccc1N(C)C(=O)c1ccn2ncc(-c3ccc(C(N)=O)cc3)c2c1	female C57BL/6 mouse	plasma	oral	10 mg/kg	4 h	concentration	20.7 nM
OCCN1CCN(CCCN2c3ccccc3Sc3ccc(Cl)cc32)CC1	mouse	serum		dose not given		serum ALT	133 ± 42.6 U/L

Excerpt of the above (block 1):
target	remaining activity
Vascular endothelial growth factor receptor 1 (FLT1, Homo sapiens, UniProt P17948)	89.7%
Ephrin type-A receptor 6 (EPHA6, Homo sapiens, UniProt Q9UF33)	88%
Serine/threonine-protein kinase Sgk2 (SGK2, Homo sapiens, UniProt Q9HBY8)	99.4%
Serine/threonine-protein kinase PAK 1 (PAK1, Homo sapiens, UniProt Q13153)	95.8%
Cyclin-dependent kinase 2, with cyclin E (CDK2, Homo sapiens, UniProt P24941)	92.1%
Muscle, skeletal receptor tyrosine-protein kinase (MUSK, Homo sapiens, UniProt O15146)	79.8%
Serine/threonine-protein kinase SIK2 (SIK2, Homo sapiens, UniProt Q9H0K1)	97.6%
Insulin-like growth factor 1 receptor (IGF1R, Homo sapiens, UniProt P08069)	88.3%
